# Measured values pooled from the literature.
# A part holds a random share of what one study measured.

# Series 1
# Target: Histone acetyltransferase KAT6A, winged helix 1, GST fusion (KAT6A, Homo sapiens, UniProt Q92794, residues 1-85)
# Method: protein binding microarray
# Molecule type: double-stranded DNA, one strand shown
# Medium: in vitro
# Tested at: not given
# Setting: 8-mer, flanks averaged, mean of 2 arrays, mostly near background
# Reference: not given
# Reading: higher = stronger binding
# Target sequence (chain): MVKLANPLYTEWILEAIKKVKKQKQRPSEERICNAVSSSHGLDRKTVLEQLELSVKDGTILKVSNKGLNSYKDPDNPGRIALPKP
Strand,E-score
CAGGGCTA,-0.0928
CTTTGACA,-0.222
CACTGGGC,-0.0935
ACGAACCC,0.194

# Series 2
# Target: Sal-like protein 4, full length isoform B (SALL4, Homo sapiens, UniProt Q9UJQ4-2, residues 1-616)
# Method: universal PBM
# Molecule type: double-stranded DNA, one strand shown
# Medium: in vitro
# Tested at: not given
# Setting: 8-mer, flanks averaged, mean of replicates
# Reading: higher = stronger binding
# Residues (chain): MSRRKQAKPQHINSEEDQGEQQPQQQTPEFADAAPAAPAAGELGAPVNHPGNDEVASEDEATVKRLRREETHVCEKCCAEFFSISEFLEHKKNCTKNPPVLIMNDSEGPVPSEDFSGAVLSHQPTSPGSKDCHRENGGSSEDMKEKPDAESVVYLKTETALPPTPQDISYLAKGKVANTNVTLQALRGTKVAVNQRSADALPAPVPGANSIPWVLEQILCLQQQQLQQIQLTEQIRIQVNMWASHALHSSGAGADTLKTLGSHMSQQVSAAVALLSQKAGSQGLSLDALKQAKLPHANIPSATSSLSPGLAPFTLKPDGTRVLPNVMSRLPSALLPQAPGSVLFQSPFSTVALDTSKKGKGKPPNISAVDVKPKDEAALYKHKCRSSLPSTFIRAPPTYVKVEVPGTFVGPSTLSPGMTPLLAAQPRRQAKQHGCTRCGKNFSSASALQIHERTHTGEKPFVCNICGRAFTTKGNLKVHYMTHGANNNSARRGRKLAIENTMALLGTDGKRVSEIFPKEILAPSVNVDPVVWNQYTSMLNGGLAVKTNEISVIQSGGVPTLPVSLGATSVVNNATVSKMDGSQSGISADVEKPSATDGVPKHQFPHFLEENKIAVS
Strand,E-score
AGACTCAC,-0.184
AACTGGCA,0.00284
GGGGCCCC,-0.393

# Series 3
# Target: RNA binding protein fox-1 homolog 2, RRM domain, GST-SBP tag (RBFOX2, Homo sapiens, UniProt O43251-10, residues 100-194)
# Method: RNA Bind-n-Seq
# Molecule type: RNA
# Medium: in vitro
# Tested at: 365 nM
# Setting: natural RNA segment, single round, ends assumed
# Reference: no-protein control
# Reading: higher = stronger binding
Strand,RBNS enrichment (R)
GGGAGUUCUACAGUCCGACGAUCGAGGUCAGUGUUUACUGUUUUAUAUAUGCCUUCUUUUUCCUGUUUGAGCUUCUCUCUUUGAAGGAUUCUAACAGAACAAAGCUGCUGAUCAACCUAAGUUGGAAACAGAAUGGAAUUCUCGGGUGCCAA,0.611
GGGAGUUCUACAGUCCGACGAUCACAUAACUAAGGAAUGCCUAACUAAUGGAAACUUAAGUUCCUUCUAGCCAUUAAAACAGAGAGAAGAUCAAUUUAGAUCCCGGAACACUGUAUUUGAAAAAUAAUCUUCCUGGAAUUCUCGGGUGCCAA,0.476
GGGAGUUCUACAGUCCGACGAUCUCCUGGUCAUUUAGUUCAGAACAGGUGUCCUUUCUCUGUGACCAAACUUACUUUCUCUAAAAUUCCUGCAGCAGACACCAGAGGCACCCCAGACCUAGACCUCCCUUCUAUGGAAUUCUCGGGUGCCAA,1.05

# Further values, each from its own experiment
Substance,target,assay,test system,conditions,how to read,quantity,result
"PhoQ, residues 284 288 289 292 302 303 NLCILV","PhoP, residues 12 14 15 18 19 NNFVT (Escherichia coli, UniProt P23836)","Sort-seq, measured: YFP reporter",E. coli,"PhoQ-PhoP variant library, with: 10 µM Mg2+","reference: high Mg2+ state, higher = stronger signaling",fold induction,20.2
